# Measurements pooled from the literature.
# Protocols differ between the studies behind these lines. Numbers after ± are the reported error.
Structure (SMILES),assay,test system,conditions,logD
CC(N)(CC(F)(F)F)C1C2OC(=O)C1C1(O)CC3OC34C(=O)OC2C14C (stereo not drawn),,,pH 7.4,0.609
C[C@H](O)[C@@H](NC(=O)[C@H]1CCCN1C(=O)[C@@H](CCCCN)NC(=O)[C@@H](CO)NC(=O)[C@@H](Cc1ccc(O)cc1)NC(=O)[C@@H](CC(N)=O)NC(=O)CCOCCOCCOCCNC(=O)CN1CCN(CC(=O)O)CCN(CC(=O)O)CCN(CC(=O)O)CC1)C(=O)N[C@H](CC(=O)O)C(=O)N[C@H](CCCNC(=N)N)C(=O)N[C@H](CCC(N)=O)C(=O)N[C@H](Cc1ccc(O)cc1)C(=O)N[C@H](Cc1c[nH]cn1)C(=O)N[C@H](Cc1ccccc1)C(N)=O [copper-64 labelled],shake-flask,1-octanol/water,,-3.5
NC1CCN(C(=O)OC2CCCC3(C2)OOC2(O3)C3CC4CC(C3)CC2C4)CC1 (stereo not drawn),,octanol/PBS,pH 7.4,2.44
CCNc1cc2[o+]c3cc(NCC)c(C)cc3c(-c3ccccc3C(=O)OCCOCC[18F])c2cc1C,,octanol/PBS,pH 7.4,1.96 ± 0.05
C=C(C)[C@@H]1[C@H]2OC(=O)[C@@H]1[C@]1(O)C[C@H]3O[C@]34C(=O)O[C@H]2[C@]14C,,,pH 7.4,0.723
COCC(=O)NCCSc1c(-c2ccc(Br)cc2)[nH]c2ccccc12,,,pH 7.4,5
CC(=O)O[C@H]1CC[C@@]2(C)[C@H](CC[C@@H]3[C@@H]2C[C@@H](OC(C)=O)[C@]2(C)[C@@H](C4=CC(=O)OC4)CC[C@]32O)C1,,,pH 7.4,2.64
COc1cc(C(=O)NCCOCCOCCOCCNC(=O)c2ccc([18F])nc2)ccc1NC(=O)C1NC(CC(C)(C)C)C(C#N)(c2ccc(Cl)cc2F)C1c1cccc(Cl)c1F (stereo not drawn),shake-flask,n-octanol/PBS,pH 7.4,3 ± 0.1
CC(=O)O[C@H]1CC[C@]2(C)[C@H]3C[C@@H](OC(C)=O)[C@]4(C)[C@@H](C5=CC(=O)OC5)CC[C@]4(O)[C@@H]3CC[C@@]2(n2nnc3ccccc32)C1,,,pH 7.4,2.91
CC[C@H](C)[C@H](NC(=O)CNC(=O)[C@H](Cc1ccccc1)NC(=O)[C@H](CCCCN)NC(=O)[C@H](CCCCN)NC(=O)[C@H](CCCNC(=N)N)NC(=O)[C@H](CCCNC(=N)N)NC(=O)[C@H](CCCNC(=N)N)NC(=O)[C@H](CCC(N)=O)NC(=O)[C@H](CCCNC(=N)N)NC(=O)[C@H](CCCNC(=N)N)NC(=O)[C@H](CCCCN)NC(=O)[C@H](CCCCN)NC(=O)[C@H](CCCNC(=N)N)NC(=O)CNC(=O)[C@@H](N)Cc1ccc(O)cc1)C(=O)N[C@H](C(=O)N[C@@H](CC(N)=O)C(=O)N[C@@H](CO)C(=O)N[C@@H](CCC(N)=O)C(=O)N[C@@H](CC(C)C)C(=O)N[C@@H](CCCCN)C(=O)N1CCC[C@H]1C(=O)O)[C@@H](C)O,derivative UV-vis spectrophotometry,DMPC:Chol large unilamellar vesicles vs PBS,"30 min, pH 7.4, 37 °C, lipid ratio 85:15",3.11 ± 0.03
O=C(OCCOCC[18F])c1ccccc1-c1c2cc3c4c(c2[o+]c2c5c6c(cc12)CCCN6CCC5)CCCN4CCC3,,octanol/PBS,pH 7.4,1.97 ± 0.01
CC[C@H](C)[C@H](NC(=O)[C@@H](NC(=O)[C@H](CC(N)=O)NC(=O)[C@H](CCC(N)=O)NC(=O)[C@@H]1CCCN1C(=O)[C@@H](NC(=O)[C@H](Cc1ccc(O)cc1)NC(=O)CNC(=O)[C@H](Cc1ccc(O)cc1)NC(=O)[C@H](Cc1c[nH]c2ccccc12)NC(=O)[C@H](Cc1c[nH]cn1)NC(=O)[C@H](Cc1ccc(O)cc1)NC(=O)CCOCCOCCOCCOCCOCCOCCC(=O)NCCCN(CCCNC(=O)CCOCCOCCOCCOCCOCCOCCC(=O)N[C@@H](Cc1ccc(O)cc1)C(=O)N[C@@H](Cc1c[nH]cn1)C(=O)N[C@@H](Cc1c[nH]c2ccccc12)C(=O)N[C@@H](Cc1ccc(O)cc1)C(=O)NCC(=O)N[C@@H](Cc1ccc(O)cc1)C(=O)N[C@H](C(=O)N1CCC[C@H]1C(=O)N[C@@H](CCC(N)=O)C(=O)N[C@@H](CC(N)=O)C(=O)N[C@H](C(=O)N[C@H](C(=O)O)[C@@H](C)CC)C(C)C)[C@@H](C)O)CC(=O)NCCOCCOCCOCCOCCC(=O)N[C@@H](CCCCNC(=O)CC[C@H](C(=O)O)N1CCN(CC(=O)O)CCN(CC(=O)O)CC1)C(N)=O)[C@@H](C)O)C(C)C)C(=O)O [gallium-68 labelled],,1-octanol/phosphate buffer,pH 7.4,-2.52 ± 0.03

# Excerpt of the above:
Structure (SMILES),assay,test system,conditions,logD
CC(=O)O[C@H]1CC[C@@]2(C)[C@H](CC[C@@H]3[C@@H]2C[C@@H](OC(C)=O)[C@]2(C)[C@@H](C4=CC(=O)OC4)CC[C@]32O)C1,,,pH 7.4,2.64
